# Results pooled from the literature.
# Protocols differ between the studies behind these lines. Values joined by “and” are separate records of one study, mostly repeats; a detail may differ. ± gives the spread as reported.
# fabG: 3-oxoacyl-[acyl-carrier-protein] reductase FabG (fabG, Pseudomonas aeruginosa, UniProt O54438)
# MAOA: Amine oxidase [flavin-containing] A (MAOA, Homo sapiens, UniProt P21397)
# MLLT1 with AF4: Protein ENL, with AF4 (MLLT1, Homo sapiens, UniProt Q03111)
# ORF1 3C-like protease: Genome polyprotein, 3C-like protease (ORF1, Hu/NV/NV/1968/US, UniProt Q83883)
# TST: Thiosulfate sulfurtransferase (TST, Bos taurus, UniProt P00586)
# BMX: Cytoplasmic tyrosine-protein kinase BMX (BMX, Homo sapiens, UniProt P51813)
Structure (SMILES),target,assay,system,conditions,IC50
CCCCCCCCC,"uncharacterized protein (Bradysia odoriphaga, UniProt A0A2S0X9G4)","binding, competitive fluorescence displacement",,pH 7.4,> 50 µM
COc1ccc(OC)c(NC(=O)N2CCOc3ccc(C)cc32)c1,fabG,"enzyme activity, inhibitor, NADPH fluorescence",,"reverse reaction, geometric mean, together with: 3-OH-decanoyl-NAC, NADP",10 µM
O=C(Nc1ccc(Cl)c(F)c1)c1ccc2c(c1)C(=O)NC2=O,MAOA,,,,> 40 µM
CC(C)(C)c1nc(-c2ccc(NC(=O)Nc3cccc(C(F)(F)F)c3)c3ccccc23)c2c(N)nccn12,"Serine/threonine-protein kinase/endoribonuclease IRE1 (ERN1, Homo sapiens, UniProt O75460)","RNase activity, inhibitor, FRET suppression",,"90 min preincubation, together with: XBP1 RNA substrate",19.7 µM
OCCc1ccccc1,"uncharacterized protein (Drosophila suzukii, UniProt A0AB39ZGK5)","binding, bis-ANS competition fluorescence",,"pH 7.4, together with: bis-ANS",> 50 µM
c1cc(N2CCCC2)ccc1-c1cc2ncc(OCC3CCNCC3)nc2cc1-c1ccc(N2CCCC2)cc1,MLLT1 with AF4,AlphaScreen,,,0.35 ± 0.007 µM
CC(=O)OCC(C)C,"uncharacterized protein (Drosophila suzukii, UniProt A0AB39ZGK5)","binding, bis-ANS competition fluorescence",,"pH 7.4, together with: bis-ANS",> 50 µM
NC(=O)c1sc(-c2ccccc2)cc1NC(=O)c1cccs1,fabG,"enzyme activity, inhibitor, NADPH fluorescence",,"reverse reaction, geometric mean, together with: 3-OH-decanoyl-NAC, NADP",6.6 µM
CC(C)C[C@H](NC(=O)[C@H](Cc1cccc2ccccc12)NC(=O)OCc1ccccc1)C(=O)N[C@H](CO)CNC(=O)N1CCC1,ORF1 3C-like protease,"protease activity, inhibitor, FRET",GI.1,37 °C,> 100 µM
CCCCCCCCCCCCCCCC,"uncharacterized protein (Bradysia odoriphaga, UniProt A0A2S0X9G4)","binding, competitive fluorescence displacement",,pH 7.4,> 50 µM
CCOC(=O)[C@H]1O[C@@H]1C(=O)N[C@@H](CC(C)C)C(=O)NCCC(C)C,"Calpain-2 catalytic subunit (Homo sapiens, UniProt P17655)",,,,0.53 ± 0.32 µM
O=C(Nc1ccc(Sc2nc3ccccc3s2)c(Cl)c1)c1cccc(Br)c1O,TST,"enzyme activity, inhibitor",,native rhodanese counter-screen,> 100 µM
CCCCCCCCCCCCCC,"uncharacterized protein (Bradysia odoriphaga, UniProt A0A2S0X9G4)","binding, competitive fluorescence displacement",,pH 7.4,> 50 µM
O=C1C[C@@H](c2ccc(O)cc2)Oc2cc(O)cc(O)c21,"uncharacterized protein (Drosophila suzukii, UniProt A0AB39ZCT4)","binding, bis-ANS competition fluorescence",,"pH 7.4, together with: bis-ANS",42.1 µM
O=C(Nc1cccc(Br)c1)c1ccc2c(c1)C(=O)NC2=O,MAOA,,,,> 40 µM
O=S(=O)(Nc1ccc(-c2nc3cc(NS(=O)(=O)c4cccc(C(F)(F)F)c4)ccc3o2)cc1)c1cccc(C(F)(F)F)c1,TST,"enzyme activity, inhibitor",,native rhodanese counter-screen,> 100 µM
O=C(O)c1ccc(NS(=O)(=O)c2ccc(Cl)c(Cl)c2)c2ncccc12,"Estradiol 17-beta-dehydrogenase 11 (Homo sapiens, UniProt Q8NBQ5)","enzyme activity, inhibitor",,together with: 20-HETE ethanolamide substrate,> 100 µM
O=C(Nc1ccccc1Cl)c1ccc2c(c1)C(=O)NC2=O,MAOA,,,,> 40 µM
Cc1nc(Nc2ncc(C(=O)Nc3c(C)cccc3Cl)s2)cc(N2CC[C@H](O)C2)n1,BMX,"enzyme activity, inhibitor",,,0.00025 µM
[Cl-].[Cl-].[Zn+2],"Voltage-gated hydrogen channel 1 (HVCN1, Homo sapiens, UniProt Q96D96, E119H)","proton current, inhibitor, whole-cell voltage clamp",,,0.57 µM
COc1ccc(S(=O)(=O)Nc2ccc3oc(-c4ccc(NC(=O)c5ccc(Cl)s5)cc4)nc3c2)cc1,TST,"enzyme activity, inhibitor",,native rhodanese counter-screen,> 100 µM
CC(C)C[C@H](NC(=O)[C@H](Cc1cccc2ccccc12)NC(=O)OCc1ccccc1)C(=O)N[C@H](CO)Cn1ccnn1,ORF1 3C-like protease,"protease activity, inhibitor, FRET",GI.1,37 °C,> 1 µM
COc1cc(O)c(CC=C(C)C)c(O)c1C(=O)/C=C/c1ccc(O)cc1,"Thyroxine 5-deiodinase (DIO3, Homo sapiens, UniProt P55073, A240R)",inhibitor,,A240R variant,0.27 µM and 0.23 µM and 0.21 µM
O=C(/C=C/c1ccc(O)cc1)CC(=O)/C=C/c1ccc(O)cc1,"Sarcoplasmic/endoplasmic reticulum calcium ATPase 1 (ATP2A1, Oryctolagus cuniculus, UniProt P04191)","ATPase activity, inhibitor",rabbit hind leg microsomes,"pH 7.3, together with: 0.22 mM ATP",250 µM
C=C1CC/C=C(/C)CC[C@@H]2[C@@H]1CC2(C)C,"uncharacterized protein (Bradysia odoriphaga, UniProt A0A2S0X9G4)","binding, competitive fluorescence displacement",,pH 7.4,> 50 µM
C=CC(C)(CCC=C(C)C)OC(C)=O (stereo not drawn),"uncharacterized protein (Drosophila suzukii, UniProt A0AB39ZCT4)","binding, bis-ANS competition fluorescence",,"pH 7.4, together with: bis-ANS",> 50 µM
c1cc(N2CCCCC2)ccc1Nc1cc2ncc(OCC3CCNCC3)nc2cc1-c1ccc(N2CCCCC2)cc1,"Protein ENL, with DOT1L (MLLT1, Homo sapiens, UniProt Q03111)",AlphaScreen,,,1.1 ± 0.13 µM
CCCCC=O,"uncharacterized protein (Bradysia odoriphaga, UniProt A0A2S0X9G4)","binding, competitive fluorescence displacement",,pH 7.4,> 50 µM
CN1CCN(c2ccc(Nc3ncc4cc(C#N)c(=O)n(C5CCCC5)c4n3)cc2)CC1,"Serine/threonine-protein kinase N2 (PKN2, Homo sapiens, UniProt Q16513)",,,,> 10 µM
O=S(=O)(Nc1ccc(-c2nc3cc(NS(=O)(=O)c4ccccc4Cl)ccc3o2)cc1)c1ccccc1Cl,TST,"enzyme activity, inhibitor",,native rhodanese counter-screen,> 100 µM
Cc1cc(C#N)cc(C)c1Oc1nc(Nc2ccc(C#N)cc2)nc(N)c1Br,"Gag-Pol polyprotein, reverse transcriptase (gag-pol, Xenotropic MuLV-related virus, UniProt A1Z651)","inhibitor, primer extension",,together with: 1 µM dNTPs,> 10 µM
CCCCCC/C=C\CCCCCCCCCCOC(C)=O,"uncharacterized protein (Drosophila suzukii, UniProt A0AB39ZGK5)","binding, bis-ANS competition fluorescence",,"pH 7.4, together with: bis-ANS",> 50 µM
Cc1[nH]c(N)nc1/C=C/C(=O)c1cc(F)cc(F)c1,"Voltage-gated hydrogen channel 1, monomeric (HVCN1, Homo sapiens, UniProt Q96D96)","proton current, inhibitor, inside-out patch clamp",,pH 6.0,20.6 ± 0.7 µM
Cc1ccc(NC(=O)c2ccc(C)c(C(F)(F)F)c2)cc1C#Cc1nn(C2CCC(O)CC2)c2ncnc(N)c12 (stereo not drawn),"Tyrosine-protein kinase ABL2 (ABL2, Homo sapiens, UniProt P42684)","inhibitor, radiometric kinase",,together with: ATP 10 µM,0.004 µM
COc1c(Br)cccc1C(=O)Nc1ccc(Sc2nc3ccccc3s2)c(Cl)c1,TST,"enzyme activity, inhibitor",,native rhodanese counter-screen,> 100 µM
CN1CCC(CNc2ccc3ncc(-c4cccc(OC(F)(F)F)c4)n3n2)CC1,"Rho-associated protein kinase 1 (ROCK1, Homo sapiens, UniProt Q13464)","binding, KINOMEscan binding",,top concentration 10 µM,0.508 µM
NC(=O)NO,"NADH dehydrogenase [ubiquinone] iron-sulfur protein 7, mitochondrial/NADH dehydrogenase [ubiquinone] iron-sulfur protein 2, mitochondrial/MT-ND1 (Homo sapiens, UniProt O75251+O75306+P03886)","oxygen consumption rate, inhibitor, Seahorse XF-96",HCT-116,complex I-driven,> 3000 µM
CCCCCC/C=C\CCCCCCCCCCCCCCC,"uncharacterized protein (Drosophila suzukii, UniProt A0AB39ZCT4)","binding, bis-ANS competition fluorescence",,"pH 7.4, together with: bis-ANS",> 50 µM
Cc1cnc(-c2ccc(-c3ccc(NC(=O)Nc4c(F)cc(F)cc4F)cc3F)c3c2C(=O)NC3)[nH]1,BMX,"enzyme activity, inhibitor, mobility shift",,together with: ATP 1 mM,0.0091 µM
C=C(C)[C@H]1CC=C(C)CC1,"uncharacterized protein (Bradysia odoriphaga, UniProt A0A2S0X9G4)","binding, competitive fluorescence displacement",,pH 7.4,> 50 µM
CCCCCCCCCCCCCCCC(=O)OC,"uncharacterized protein (Drosophila suzukii, UniProt A0AB39ZGK5)","binding, bis-ANS competition fluorescence",,"pH 7.4, together with: bis-ANS",> 50 µM
O=C(Nc1ccc(Cl)cc1)c1ccc2c(c1)C(=O)NC2=O,MAOA,,,,> 40 µM
c1ccc(COc2ccc(Nc3ccc4ncc(OCC5CCNCC5)nc4c3)cc2)cc1,MLLT1 with AF4,AlphaScreen,,,1.5 ± 0.11 µM
CCn1c(NC(=O)Nc2ccccc2C)nc2ccccc21,fabG,"enzyme activity, inhibitor, NADPH fluorescence",,"reverse reaction, geometric mean, together with: 3-OH-decanoyl-NAC, NADP",6.7 µM
C=CC(=O)Nc1cccc(Oc2nc(Nc3ccc(N4CCN(C)CC4)cc3)nc3ccoc23)c1,BMX,,,,< 0.000254 µM
O=C(Nc1ccc(F)cc1)c1ccc2c(c1)C(=O)NC2=O,MAOA,,,,> 40 µM
COc1ccc(S(=O)(=O)Nc2ccc3oc(-c4ccc(NC(=O)C5CCN(C(C)=O)CC5)cc4)nc3c2)cc1,TST,"enzyme activity, inhibitor",,native rhodanese counter-screen,> 100 µM
Cc1cc(S(=O)(=O)NCCO[C@H]2CC[C@H](CN3CCC(c4ccn5c(N6CCC(=O)NC6=O)cnc5c4)CC3)CC2)ccc1Nc1ncc2cc(Cl)c(=O)n(C3CCCC3)c2n1,"Cyclin-dependent kinase 1, with cyclin B1 (CDK1, Homo sapiens, UniProt P06493)","enzyme activity, inhibitor",,together with: ATP 100 µM,0.1 µM
Cn1ncc2c(NCCO)nc(Nc3ccc(F)c(F)c3)nc21,fabG,"enzyme activity, inhibitor, NADPH fluorescence",,"reverse reaction, geometric mean, together with: 3-OH-decanoyl-NAC, NADP",4 µM
CC[C@@H]1[C@H](F)C(=O)N[C@@H]1COc1nccc2cc(C(N)=O)c(OC)cc12,"Ribosomal protein S6 kinase alpha-1 (RPS6KA1, Homo sapiens, UniProt Q15418)","ATP-site binding, ActivX kinase profiling",THP-1 cell lysate,RSK1 domain 1 activation-loop probe peptide,> 5 µM
O=C(Nc1cc(Cl)cc(Cl)c1)c1ccc2c(c1)C(=O)NC2=O,MAOA,,,,> 40 µM
O=C(Nc1ccc2ccccc2n1)Nc1cccs1,fabG,"enzyme activity, inhibitor, NADPH fluorescence",,"reverse reaction, geometric mean, together with: 3-OH-decanoyl-NAC, NADP",1.6 µM
CCn1c(-c2nc3cc(C(=O)N4CCC[C@@H](N)C4)cc(OC)c3n2C)cc2cccnc21,"Histamine H1 receptor (HRH1, Homo sapiens, UniProt P35367)","antagonist, intracellular Ca2+ luminescence",,,> 39.8 µM
CCCCCC/C=C\CC/C=C\CCCCCCCCCCCCCCC,"uncharacterized protein (Drosophila suzukii, UniProt A0AB39ZGK5)","binding, bis-ANS competition fluorescence",,"pH 7.4, together with: bis-ANS",> 50 µM

# Excerpt of the above:
Structure (SMILES),target,assay,system,conditions,IC50
CCCCC=O,"uncharacterized protein (Bradysia odoriphaga, UniProt A0A2S0X9G4)","binding, competitive fluorescence displacement",,pH 7.4,> 50 µM
CN1CCN(c2ccc(Nc3ncc4cc(C#N)c(=O)n(C5CCCC5)c4n3)cc2)CC1,"Serine/threonine-protein kinase N2 (PKN2, Homo sapiens, UniProt Q16513)",,,,> 10 µM
O=S(=O)(Nc1ccc(-c2nc3cc(NS(=O)(=O)c4ccccc4Cl)ccc3o2)cc1)c1ccccc1Cl,TST,"enzyme activity, inhibitor",,native rhodanese counter-screen,> 100 µM
Cc1cc(C#N)cc(C)c1Oc1nc(Nc2ccc(C#N)cc2)nc(N)c1Br,"Gag-Pol polyprotein, reverse transcriptase (gag-pol, Xenotropic MuLV-related virus, UniProt A1Z651)","inhibitor, primer extension",,together with: 1 µM dNTPs,> 10 µM
CCCCCC/C=C\CCCCCCCCCCOC(C)=O,"uncharacterized protein (Drosophila suzukii, UniProt A0AB39ZGK5)","binding, bis-ANS competition fluorescence",,"pH 7.4, together with: bis-ANS",> 50 µM
Cc1[nH]c(N)nc1/C=C/C(=O)c1cc(F)cc(F)c1,"Voltage-gated hydrogen channel 1, monomeric (HVCN1, Homo sapiens, UniProt Q96D96)","proton current, inhibitor, inside-out patch clamp",,pH 6.0,20.6 ± 0.7 µM
Cc1ccc(NC(=O)c2ccc(C)c(C(F)(F)F)c2)cc1C#Cc1nn(C2CCC(O)CC2)c2ncnc(N)c12 (stereo not drawn),"Tyrosine-protein kinase ABL2 (ABL2, Homo sapiens, UniProt P42684)","inhibitor, radiometric kinase",,together with: ATP 10 µM,0.004 µM
